Experimental data pooled from the literature.
Numbered parts are unrelated; each lists some results of a single study.
Sequence of UniProt Q13873 (whole entry, looked up): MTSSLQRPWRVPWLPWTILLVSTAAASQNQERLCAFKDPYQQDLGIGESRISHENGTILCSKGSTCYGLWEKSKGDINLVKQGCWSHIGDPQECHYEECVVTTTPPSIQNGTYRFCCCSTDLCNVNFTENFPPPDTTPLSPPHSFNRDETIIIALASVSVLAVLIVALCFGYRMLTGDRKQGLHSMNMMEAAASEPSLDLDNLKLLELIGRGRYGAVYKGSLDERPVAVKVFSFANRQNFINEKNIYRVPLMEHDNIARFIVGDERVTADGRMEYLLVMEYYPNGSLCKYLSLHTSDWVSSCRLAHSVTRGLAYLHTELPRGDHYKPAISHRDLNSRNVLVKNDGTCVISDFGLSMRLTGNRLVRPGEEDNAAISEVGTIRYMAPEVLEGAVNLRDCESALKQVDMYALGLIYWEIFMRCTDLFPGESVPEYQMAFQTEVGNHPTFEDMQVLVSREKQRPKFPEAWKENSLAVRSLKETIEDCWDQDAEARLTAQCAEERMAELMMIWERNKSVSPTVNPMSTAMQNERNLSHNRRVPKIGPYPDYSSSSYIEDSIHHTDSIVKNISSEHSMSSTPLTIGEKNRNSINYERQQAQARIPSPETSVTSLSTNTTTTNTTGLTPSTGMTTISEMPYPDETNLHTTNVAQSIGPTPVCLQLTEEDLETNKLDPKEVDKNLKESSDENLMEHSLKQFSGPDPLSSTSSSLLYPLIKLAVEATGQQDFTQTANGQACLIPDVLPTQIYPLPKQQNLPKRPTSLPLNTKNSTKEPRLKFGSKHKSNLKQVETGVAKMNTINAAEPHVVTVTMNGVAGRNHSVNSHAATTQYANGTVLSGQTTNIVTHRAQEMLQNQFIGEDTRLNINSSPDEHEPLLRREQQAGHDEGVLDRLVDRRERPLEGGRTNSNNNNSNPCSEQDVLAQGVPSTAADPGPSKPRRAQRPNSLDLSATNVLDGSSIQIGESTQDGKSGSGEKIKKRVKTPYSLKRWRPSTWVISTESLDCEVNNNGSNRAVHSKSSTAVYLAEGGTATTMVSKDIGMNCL
Sequence of UniProt Q56UN5 (whole entry, looked up): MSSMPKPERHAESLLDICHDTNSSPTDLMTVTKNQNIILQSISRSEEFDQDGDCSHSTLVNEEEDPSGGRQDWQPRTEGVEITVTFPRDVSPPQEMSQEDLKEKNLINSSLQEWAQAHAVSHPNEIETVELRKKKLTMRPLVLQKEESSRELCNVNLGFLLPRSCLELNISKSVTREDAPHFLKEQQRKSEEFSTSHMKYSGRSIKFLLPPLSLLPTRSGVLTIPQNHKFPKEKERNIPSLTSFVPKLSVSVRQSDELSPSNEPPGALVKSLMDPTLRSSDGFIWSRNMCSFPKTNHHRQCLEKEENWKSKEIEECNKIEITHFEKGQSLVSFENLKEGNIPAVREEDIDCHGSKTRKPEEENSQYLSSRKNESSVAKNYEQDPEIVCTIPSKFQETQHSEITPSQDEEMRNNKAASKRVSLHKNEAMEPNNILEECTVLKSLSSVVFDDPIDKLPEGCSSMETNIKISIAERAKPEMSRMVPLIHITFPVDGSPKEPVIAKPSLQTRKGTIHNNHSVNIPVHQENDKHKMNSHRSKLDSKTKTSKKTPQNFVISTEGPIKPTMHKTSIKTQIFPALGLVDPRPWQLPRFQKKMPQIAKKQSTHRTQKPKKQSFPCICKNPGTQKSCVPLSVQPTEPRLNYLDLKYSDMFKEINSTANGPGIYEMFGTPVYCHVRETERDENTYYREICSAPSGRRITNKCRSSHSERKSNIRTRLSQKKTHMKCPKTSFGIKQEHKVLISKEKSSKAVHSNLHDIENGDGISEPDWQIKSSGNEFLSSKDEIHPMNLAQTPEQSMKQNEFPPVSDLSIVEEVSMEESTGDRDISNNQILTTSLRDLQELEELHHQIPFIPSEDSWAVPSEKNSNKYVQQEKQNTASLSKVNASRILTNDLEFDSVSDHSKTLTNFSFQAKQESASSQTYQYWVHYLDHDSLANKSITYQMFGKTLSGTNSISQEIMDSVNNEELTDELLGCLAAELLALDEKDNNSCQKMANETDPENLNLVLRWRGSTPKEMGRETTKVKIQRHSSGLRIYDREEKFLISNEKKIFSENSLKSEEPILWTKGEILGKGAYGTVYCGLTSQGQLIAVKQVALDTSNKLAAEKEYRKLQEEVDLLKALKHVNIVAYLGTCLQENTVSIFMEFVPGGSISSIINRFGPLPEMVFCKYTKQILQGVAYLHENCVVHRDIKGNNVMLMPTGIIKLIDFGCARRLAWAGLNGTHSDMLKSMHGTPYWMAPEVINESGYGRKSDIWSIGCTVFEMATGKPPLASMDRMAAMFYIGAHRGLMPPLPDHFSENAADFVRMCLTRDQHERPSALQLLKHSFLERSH
Sequence of UniProt Q9UK32 (whole entry, looked up): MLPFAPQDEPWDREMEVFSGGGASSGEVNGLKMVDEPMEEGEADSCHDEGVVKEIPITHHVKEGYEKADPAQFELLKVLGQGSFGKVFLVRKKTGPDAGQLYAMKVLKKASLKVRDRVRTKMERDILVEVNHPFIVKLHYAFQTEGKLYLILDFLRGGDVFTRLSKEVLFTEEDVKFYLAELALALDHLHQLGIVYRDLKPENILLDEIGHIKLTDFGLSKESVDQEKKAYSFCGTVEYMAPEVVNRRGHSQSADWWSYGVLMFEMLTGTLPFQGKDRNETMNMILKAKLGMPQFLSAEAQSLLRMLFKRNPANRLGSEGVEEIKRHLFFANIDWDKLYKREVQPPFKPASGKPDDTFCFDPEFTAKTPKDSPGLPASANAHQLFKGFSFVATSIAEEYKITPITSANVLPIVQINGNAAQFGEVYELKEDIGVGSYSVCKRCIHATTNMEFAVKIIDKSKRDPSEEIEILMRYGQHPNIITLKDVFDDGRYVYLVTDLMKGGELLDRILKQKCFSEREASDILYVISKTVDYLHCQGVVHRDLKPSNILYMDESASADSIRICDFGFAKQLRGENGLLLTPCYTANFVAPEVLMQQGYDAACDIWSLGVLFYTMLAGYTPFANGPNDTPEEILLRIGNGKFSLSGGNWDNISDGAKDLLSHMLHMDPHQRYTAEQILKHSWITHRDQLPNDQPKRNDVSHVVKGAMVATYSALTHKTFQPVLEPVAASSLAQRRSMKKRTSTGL
Sequence of UniProt Q99759 (whole entry, looked up): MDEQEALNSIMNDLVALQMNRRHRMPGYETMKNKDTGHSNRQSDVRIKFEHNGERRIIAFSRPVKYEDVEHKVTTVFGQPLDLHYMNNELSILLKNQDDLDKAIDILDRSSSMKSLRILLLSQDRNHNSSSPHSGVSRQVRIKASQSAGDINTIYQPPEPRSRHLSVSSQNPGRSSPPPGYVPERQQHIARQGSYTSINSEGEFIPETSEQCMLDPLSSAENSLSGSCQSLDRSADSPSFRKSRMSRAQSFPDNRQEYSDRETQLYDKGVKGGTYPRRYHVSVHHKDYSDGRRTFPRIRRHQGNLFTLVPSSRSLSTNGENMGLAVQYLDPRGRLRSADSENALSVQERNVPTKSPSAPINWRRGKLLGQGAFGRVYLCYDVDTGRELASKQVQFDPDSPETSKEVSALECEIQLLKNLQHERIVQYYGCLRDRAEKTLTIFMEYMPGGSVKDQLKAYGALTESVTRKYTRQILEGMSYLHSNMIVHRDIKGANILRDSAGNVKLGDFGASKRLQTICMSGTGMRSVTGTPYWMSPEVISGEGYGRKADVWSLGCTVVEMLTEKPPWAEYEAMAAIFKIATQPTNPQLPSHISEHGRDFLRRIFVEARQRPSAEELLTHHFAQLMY
Sequence of UniProt P53350 (whole entry, looked up): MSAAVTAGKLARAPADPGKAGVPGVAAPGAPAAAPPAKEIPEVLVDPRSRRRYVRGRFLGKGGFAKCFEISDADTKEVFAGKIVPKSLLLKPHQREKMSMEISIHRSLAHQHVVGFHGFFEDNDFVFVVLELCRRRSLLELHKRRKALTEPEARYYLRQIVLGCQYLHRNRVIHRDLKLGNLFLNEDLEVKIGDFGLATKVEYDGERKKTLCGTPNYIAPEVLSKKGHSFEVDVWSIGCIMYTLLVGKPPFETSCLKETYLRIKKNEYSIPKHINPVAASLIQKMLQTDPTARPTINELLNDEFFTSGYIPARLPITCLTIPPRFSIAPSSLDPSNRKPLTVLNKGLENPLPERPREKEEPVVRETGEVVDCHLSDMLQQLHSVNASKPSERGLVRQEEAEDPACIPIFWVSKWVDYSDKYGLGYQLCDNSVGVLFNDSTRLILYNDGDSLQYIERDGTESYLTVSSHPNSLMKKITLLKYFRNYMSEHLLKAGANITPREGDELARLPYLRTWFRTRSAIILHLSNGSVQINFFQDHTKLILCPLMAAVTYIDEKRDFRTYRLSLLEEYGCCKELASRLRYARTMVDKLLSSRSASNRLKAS
Sequence of UniProt P53671 (whole entry, looked up): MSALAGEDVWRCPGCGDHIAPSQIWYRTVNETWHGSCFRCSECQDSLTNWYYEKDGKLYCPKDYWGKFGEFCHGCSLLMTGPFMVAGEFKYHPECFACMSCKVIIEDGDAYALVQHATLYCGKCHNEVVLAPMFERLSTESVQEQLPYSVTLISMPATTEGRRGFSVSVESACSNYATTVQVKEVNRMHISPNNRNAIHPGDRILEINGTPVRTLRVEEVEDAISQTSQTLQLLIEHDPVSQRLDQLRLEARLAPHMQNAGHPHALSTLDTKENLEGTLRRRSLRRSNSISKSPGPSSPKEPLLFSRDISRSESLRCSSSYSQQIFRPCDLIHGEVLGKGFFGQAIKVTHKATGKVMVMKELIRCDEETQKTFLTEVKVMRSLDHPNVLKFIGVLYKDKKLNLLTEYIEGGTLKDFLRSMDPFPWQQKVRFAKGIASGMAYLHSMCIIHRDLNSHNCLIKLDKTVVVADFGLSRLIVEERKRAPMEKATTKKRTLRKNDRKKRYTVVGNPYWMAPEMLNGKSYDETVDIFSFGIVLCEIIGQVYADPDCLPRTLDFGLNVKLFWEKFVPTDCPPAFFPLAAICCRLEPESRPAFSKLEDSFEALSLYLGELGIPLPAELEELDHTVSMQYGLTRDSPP

Set 1 — technique: aptamer microarray, sandwich; molecule type: DNA with 2'F-ANA; medium: in vitro; tested at: 200 nM; added: Cy3 exosite-II aptamer, 400 nM; direction: higher = stronger binding; oligonucleotide: GGTTGGTGTGGTTGG
Target: Prothrombin, mature alpha-thrombin (F2, Homo sapiens, UniProt P00734)
Notes: whole 15-mer aptamer, many near background
| Modification | mean fluorescence intensity [a.u.] |
| --- | --- |
| 2'F-ANA at 4 5 7 8 10 13 | 155 |
| 2'F-ANA at 1 2 3 4 6 7 9 10 11 | 58.8 |
| 2'F-ANA at 3 5 8 10 11 14 15 | 51.9 |
| 2'F-ANA at 1 4 5 7 8 10 | 46.6 |
| 2'F-ANA at 1 4 5 7 10 12 13 14 15 | 48.5 |
| 2'F-ANA at 1 5 9 11 12 14 15 | 51.5 |
| 2'F-ANA at 1 2 3 4 6 9 12 13 | 179 |
| 2'F-ANA at 2 4 6 7 8 13 14 | 102 |

Set 2 — Structure (SMILES): FC(F)(F)c1ccc2c(c1)nc(-c1cccnc1)n2C1CC1; effect on: cell-free assay; technique: competition with immobilised ligand; tested at: 1 µM
| target | remaining binding [%] |
| --- | --- |
| MAP3K3 (Homo sapiens, UniProt Q99759) | 100 |
| FGFR1 (Homo sapiens, UniProt P11362) | 100 |
| EPHA7 (Homo sapiens, UniProt Q15375) | 100 |
| MAP2K4 (Homo sapiens, UniProt P45985) | 100 |
| BMPR2 (Homo sapiens, UniProt Q13873) | 100 |
| MAP3K19 (Homo sapiens, UniProt Q56UN5) | 99 |
| LIM domain kinase 2 (LIMK2, Homo sapiens, UniProt P53671) | 100 |
| CSNK1A1L (Homo sapiens, UniProt Q8N752) | 100 |
| SRC (Homo sapiens, UniProt P12931) | 100 |
| PIK3CA (Homo sapiens, UniProt P42336, E542K) | 100 |
| PLK1 (Homo sapiens, UniProt P53350) | 96 |
| MAP3K6 (Homo sapiens, UniProt O95382) | 100 |
| FLT3 (Homo sapiens, UniProt P36888, D835H) | 69 |
| STK16 (Homo sapiens, UniProt O75716) | 100 |
| Ribosomal protein S6 kinase alpha-6, C-terminal kinase domain (RPS6KA6, Homo sapiens, UniProt Q9UK32) | 100 |
| ACVR1B (Homo sapiens, UniProt P36896) | 98 |
| EGFR (Homo sapiens, UniProt P00533, del747-750/T751S) | 100 |
| EPHA8 (Homo sapiens, UniProt P29322) | 100 |

Set 3 — technique: RNAcompete; molecule type: RNA; medium: in vitro; tested at: 20 nM; notes: 7-mer, probes averaged, single round; baseline: mean of 7-mers; direction: higher = stronger binding
Target: PABPC1L2, full length, GST fusion (mouse, UniProt A0ABA7IW68)
Residues (chain): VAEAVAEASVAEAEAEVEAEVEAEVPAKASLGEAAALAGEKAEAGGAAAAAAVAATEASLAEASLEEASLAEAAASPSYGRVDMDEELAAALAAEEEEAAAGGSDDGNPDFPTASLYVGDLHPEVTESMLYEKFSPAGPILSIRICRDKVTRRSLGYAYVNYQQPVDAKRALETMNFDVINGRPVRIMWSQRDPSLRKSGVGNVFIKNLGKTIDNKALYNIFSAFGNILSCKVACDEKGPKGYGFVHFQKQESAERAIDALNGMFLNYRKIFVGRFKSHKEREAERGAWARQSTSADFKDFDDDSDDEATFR
| Oligonucleotide | 7-mer Z-score |
| --- | --- |
| UAAGCAA | 0.0352 |
| UUCACCU | -0.469 |
| AGACAUC | -0.277 |
| CCGUACA | -0.2 |
| CACCCAA | -0.0627 |
| GGGAUGA | 0.318 |
| UAAUCCG | -0.208 |
| CAGAUGA | 0.0732 |

Set 4 — effect on: enzyme activity; action: inhibitor; tested at: 0.5 µM; baseline: control
Target: Lymphokine-activated killer T-cell-originated protein kinase (PBK, Homo sapiens, UniProt Q96KB5)
Construct (Q96KB5 1-322): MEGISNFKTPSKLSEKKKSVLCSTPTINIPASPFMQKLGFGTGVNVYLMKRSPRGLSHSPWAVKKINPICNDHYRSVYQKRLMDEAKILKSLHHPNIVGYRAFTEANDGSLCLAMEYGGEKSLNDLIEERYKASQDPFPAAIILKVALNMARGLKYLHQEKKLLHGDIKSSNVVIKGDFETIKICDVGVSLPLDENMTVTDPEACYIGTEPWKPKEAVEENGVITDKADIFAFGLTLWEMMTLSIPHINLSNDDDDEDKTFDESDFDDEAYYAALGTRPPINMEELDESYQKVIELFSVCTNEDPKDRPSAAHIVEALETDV
| Structure (SMILES) | remaining activity |
| --- | --- |
| Cc1nc(-c2ccccc2)c(-c2ccncc2)o1 | 110% |
| O=C(CCCc1ccc(-c2ccccc2F)cc1)Nc1ccc(O)cc1 | 90.8% |
| Cn1sc(=O)n(Cc2ccccc2)c1=O | 107% |
| CC(C)[C@H](CO)Nc1nc(Nc2cc(N)cc(Cl)c2)c2ncn(C(C)C)c2n1 | 75.6% |
| Oc1ccc(-c2nc(-c3ccncc3)c(-c3ccc(F)cc3)[nH]2)cc1 | 100% |
| Cc1ccc(Nc2nccc(N(C)c3ccc4c(C)n(C)nc4c3)n2)cc1S(N)(=O)=O | 101% |
| N#CC(C#N)=C(N)/C(C#N)=C/c1ccc(O)cc1 | 96.4% |
| O=S(=O)(c1cccc2cnccc12)N1CCCNCC1 | 100% |
| O=C1NC(=O)C(c2cn(CCCO)c3ncccc23)=C1c1cnccn1 | 94.9% |
| O=C1NC(=O)C(c2cn(CCCn3ccnc3)c3ccccc23)=C1Nc1ccccc1 | 104% |
| NCCNc1ncc(C(N)=O)c(Nc2cccc(C(F)(F)F)c2)n1 | 66.4% |
| Nc1ccc2ncnc(NCCc3ccc(Oc4ccccc4)cc3)c2c1 | 98.2% |
| O=C(O)c1ccc2c3c1cccc3c(=O)n1c3ccccc3nc21 | 97.5% |
| CO[C@H]1C[C@@H]2CC[C@@H](C)[C@@](O)(O2)C(=O)C(=O)N2CCCC[C@H]2C(=O)O[C@H]([C@H](C)C[C@@H]2CC[C@@H](O)[C@H](OC)C2)CC(=O)[C@H](C)/C=C(\C)[C@@H](O)[C@@H](OC)C(=O)[C@H](C)C[C@H](C)/C=C/C=C/C=C/1C | 103% |
| O=C(Nc1cccc(Nc2cc(Nc3cccc(C(F)(F)F)c3)ncn2)c1)C1CC1 | 103% |
| COc1cc2ncnc(Nc3ccc(F)c(Cl)c3)c2cc1OCCCN1CCOCC1 | 102% |
